# Measurements from different studies.
# A part holds a random share of what one study measured. “And” joins repeats or separate records; there may be more than shown.

# Set 1
# Host: human
# Matrix: microsomes or S9
# Concentration: 2 µM
# Time: 0.5 h
Structure (SMILES),remaining compound [%]
Cc1ccc(C)c(CNc2cc(-n3ccnc3)ncn2)c1,43.5
CN(CC(C)(CO)CO)c1ccnc(C(C)(C)C)n1,87.9
CCN(CC)C(=O)c1cn(C2CCC23CCN(S(=O)(=O)CC)CC3)nn1 (centres unmarked),88.3
NS(=O)(=O)c1ccc(CCNCc2cccc(Oc3nnnn3-c3ccccc3)c2)cc1,> 100
Cc1ccc(S(=O)(=O)N(C)c2ccccc2)s1,0.808
Cc1cc2c(cc1CNC1(c3ccccc3F)CCCC1)OCO2,11.9
C[C@H]1CCCC(=O)CCCCCc2cc(OCc3ccccc3)cc(O)c2C(=O)O1,64
CCc1cc2c(nc(-c3ccccc3)n3nnnc23)s1,92.9
CC(Oc1ccccc1)C(=O)Nc1c(-c2ccccc2)nc2sccn12 (centres unmarked),10.7
CC(C)COc1cc(=O)n2c(c1C(=O)N1CCN(c3ccccn3)CC1)CCCCC2,35.8
COc1ccccc1Cn1c(C(=O)NCC2CC2)cc2sccc21,2.28
COc1ccc(C2c3cccn3-c3sc4c(c3CN2C(=O)NCc2ccc(F)cc2)CCCC4)cc1 (centres unmarked),3.82
Cn1cc(S(=O)(=O)Nc2nc3ccccc3nc2Nc2cc(Cl)ccc2O)cn1,40.8

# Set 2
# SMILES: COc1ccc(-c2c(Nc3ccccn3)[nH]c3c(C4=CCCCC4)c(-c4ccccc4)nn3c2=O)cc1
# Matrix: plasma
# Route: oral
test,test system,setting,"plasma concentration, geometric mean [ng/mL]"
,cancer patients,"150 mg, 4 h post-dose, single dose",1240
,human patients,"200 mg once daily, 4 h, cycle 1",4840
LC-MS/MS,human,"50 mg once daily, 4 h, cycle 1",1540
,human patients,"150 mg once daily, 4 h, cycle 1",4430
,human patients,"200 mg once daily, 8 h, cycle 1",4660
,cancer patients,"400 mg, 4 h post-dose, single dose",1140
,cancer patients,"200 mg, 2 h post-dose, single dose",709
,cancer patients,"200 mg, 6 h post-dose, single dose",1270
,human patients,"200 mg once daily, 24 h, cycle 1",3780
,cancer patients,"400 mg, 0.5 h post-dose, single dose",80.7
,cancer patients,"100 mg, 3 h post-dose, single dose",1100
,cancer patients,"150 mg, 6 h post-dose, single dose",1230
,human patients,"100 mg once daily, 0 h, cycle 1",2660
,cancer patients,"50 mg, 48 h post-dose, single dose",71.9

# Set 3
# Target: Calcium/calmodulin-dependent protein kinase type II subunit alpha (CAMK2A, Homo sapiens, UniProt Q9UQM7)
# Chain of UniProt Q9UQM7 (whole entry, looked up): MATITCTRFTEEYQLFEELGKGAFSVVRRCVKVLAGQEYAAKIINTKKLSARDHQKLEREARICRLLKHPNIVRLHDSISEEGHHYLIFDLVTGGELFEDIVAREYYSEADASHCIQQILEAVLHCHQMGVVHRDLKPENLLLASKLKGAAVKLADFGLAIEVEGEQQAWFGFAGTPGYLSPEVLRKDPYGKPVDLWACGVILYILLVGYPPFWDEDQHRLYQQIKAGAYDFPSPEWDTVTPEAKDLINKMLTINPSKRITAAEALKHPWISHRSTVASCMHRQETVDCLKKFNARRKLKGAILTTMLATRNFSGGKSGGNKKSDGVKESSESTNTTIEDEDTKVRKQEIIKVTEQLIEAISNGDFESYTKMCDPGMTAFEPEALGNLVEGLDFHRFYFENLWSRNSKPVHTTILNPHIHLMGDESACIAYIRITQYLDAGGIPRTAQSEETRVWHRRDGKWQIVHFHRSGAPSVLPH
# Read-out: enzyme activity
# Action: inhibitor
# Concentration: 10 µM
SMILES,inhibition
CC(=O)c1cc(O)ccc1O,-15%
N=C(N)Nc1ccc(C(=O)Oc2ccc3cc(C(=N)N)ccc3c2)cc1,-19%
COc1cc(CCCO)ccc1O,11%
Cc1ccccc1C(=O)Nc1ccc(C(=O)N2CCCC(O)c3cc(Cl)ccc32)c(C)c1 (centres unmarked),1%
CC(C)=CCC[C@](C)(O[C@@H]1O[C@H](CO)[C@@H](O)[C@H](O)[C@H]1O)[C@H]1CC[C@]2(C)[C@@H]1[C@H](O)C[C@@H]1[C@@]3(C)CC[C@H](O)C(C)(C)[C@@H]3[C@@H](O[C@@H]3O[C@H](CO)[C@@H](O)[C@H](O)[C@H]3O)C[C@]12C,12%

# Set 4
# Target: NUAK family SNF1-like kinase 1 (NUAK1, Homo sapiens, UniProt O60285)
# Chain of UniProt O60285 (whole entry, looked up): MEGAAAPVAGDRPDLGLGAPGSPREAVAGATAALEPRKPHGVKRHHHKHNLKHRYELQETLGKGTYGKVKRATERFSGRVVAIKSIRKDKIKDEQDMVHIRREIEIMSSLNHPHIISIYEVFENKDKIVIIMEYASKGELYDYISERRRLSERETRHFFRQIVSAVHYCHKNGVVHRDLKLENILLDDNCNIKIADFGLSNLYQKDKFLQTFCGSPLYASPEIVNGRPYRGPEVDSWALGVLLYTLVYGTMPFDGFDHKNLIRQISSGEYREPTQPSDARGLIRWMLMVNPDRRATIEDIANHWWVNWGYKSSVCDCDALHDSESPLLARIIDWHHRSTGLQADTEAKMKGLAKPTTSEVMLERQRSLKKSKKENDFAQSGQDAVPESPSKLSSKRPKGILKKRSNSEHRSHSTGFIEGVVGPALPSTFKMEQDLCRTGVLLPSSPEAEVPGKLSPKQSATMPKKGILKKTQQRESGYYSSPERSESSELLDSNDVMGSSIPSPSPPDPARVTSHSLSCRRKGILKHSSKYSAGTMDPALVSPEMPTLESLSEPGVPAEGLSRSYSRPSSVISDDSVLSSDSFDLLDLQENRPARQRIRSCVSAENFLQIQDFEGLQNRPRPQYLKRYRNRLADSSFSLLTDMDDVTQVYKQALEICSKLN
# Read-out: enzyme activity
# Action: inhibitor
# Concentration: 0.5 µM
# Baseline: control
SMILES,remaining activity [%]
c1ccc(-c2cnc(Nc3ccc(OCCN4CCCC4)cc3)s2)cc1,56.4
CCN(CC)CCNC(=O)c1c(C)[nH]c(/C=C2\C(=O)Nc3ccc(Cl)cc32)c1C,2.06
N#Cc1c(NC(=O)c2cccc3ccccc23)sc2c1CCCC2,97.3
O=C(NC(NC(=S)Nc1ccc(F)c([N+](=O)[O-])c1)C(Cl)(Cl)Cl)C(c1ccccc1)c1ccccc1 (centres unmarked),95.3
O=C(Nc1cccc(Nc2nccc(Nc3cccc(C(F)(F)F)c3)n2)c1)C1CC1,67.2
CN([C@@H](Cc1ccc(OS(=O)(=O)c2cccc3cnccc23)cc1)C(=O)N1CCN(c2ccccc2)CC1)S(=O)(=O)c1cccc2cnccc12,97.5
CCN(CC)C(=O)c1ccc(Nc2nc(OCC3CCCCC3)c3[nH]cnc3n2)cc1,3.67
Cc1nc2cc3nc(-c4cccs4)cnc3cc2n1C,95.3
O=C1c2ccccc2-c2n[nH]c3cccc1c23,23.9
Ic1cccc(CSc2nnc(-c3ccncc3)o2)c1,95.1
C[C@@H]1CCN(C(=O)CC#N)C[C@@H]1N(C)c1ncnc2[nH]ccc12,71.2
COc1cc2c(cc1OC)-c1[nH]nc(Nc3cccc(F)c3)c1C2,88.5
Cc1cn(-c2cc(NC(=O)c3ccc(C)c(Nc4nccc(-c5cccnc5)n4)c3)cc(C(F)(F)F)c2)cn1,108
Cn1nc2c3c(cccc31)C(=O)c1ccccc1-2,46.2
Cc1cc2ncc(-c3ccccc3)nc2cc1C,92.3
N#C/C(=C\c1ccc(O)c(O)c1)C(=O)NCc1ccccc1,90
COc1cc2ncnc(Nc3ccc(O)c(Br)c3)c2cc1OC,68.2
O=C1C(Cl)=C(N2C(=O)CCC2=O)C(=O)c2ccccc21,105
O=c1cc(-c2cccc3c2Sc2ccccc2S3)oc(N2CCOCC2)c1,93.1
c1ccc(-c2[nH]ncc2-c2ccnc3ccccc23)nc1,95.5
COc1cc2ncnc(Nc3cccc(Cl)c3)c2cc1OC,75.8
CN(C)C[C@H]1CCn2c(c(C3=C(c4cn(C)c5ccccc45)C(=O)NC3=O)c3ccccc32)C1,90.9
CCOc1nc(NC(=O)Cc2cc(OC)ccc2OC)cc(N)c1C#N,96.1

# Further values, each from its own experiment
SMILES,cell line,test,setting,measurement,value
Cn1cncc1[C@@](O)(COc1ccc(C#N)cc1-c1ccc(OC(F)(F)F)cc1)c1ccc(C#N)cc1,HEK293T,high-content imaging,"10 µM, 12 h",cells with altered tubulin phenotype,93.3% and 96.2%

# For quick reference, copied from above (set 2):
test,test system,setting,"plasma concentration, geometric mean [ng/mL]"
,human patients,"150 mg once daily, 4 h, cycle 1",4430
,cancer patients,"150 mg, 4 h post-dose, single dose",1240
LC-MS/MS,human,"50 mg once daily, 4 h, cycle 1",1540
,human patients,"200 mg once daily, 8 h, cycle 1",4660
,human patients,"100 mg once daily, 0 h, cycle 1",2660
,cancer patients,"200 mg, 2 h post-dose, single dose",709
,cancer patients,"50 mg, 48 h post-dose, single dose",71.9
,human patients,"200 mg once daily, 4 h, cycle 1",4840
,cancer patients,"100 mg, 3 h post-dose, single dose",1100
